Measurements pooled from the literature.
Numbered parts are unrelated; each lists some results of a single study. Positions count from the first letter of the parent shown.

Series 1
Target: ATF7, bZIP domain (human)
Technique: DHFR protein complementation
Sample: yeast
Setting: single substitutions, most at no-binding floor
Baseline: wild-type JUN-FOS pair
Reading: higher = stronger binding
Quantity: binding fitness
Starting sequence: JUN, bZIP domain (human); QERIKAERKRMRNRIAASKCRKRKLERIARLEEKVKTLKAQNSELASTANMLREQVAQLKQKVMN; partner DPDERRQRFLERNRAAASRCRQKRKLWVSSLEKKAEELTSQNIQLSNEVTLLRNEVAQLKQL
Substitution = A57W; result = -1.25 natural log
Substitution = Q55D; result = -1.37 natural log
Substitution = R30P; result = -1.3 natural log
Substitution = A29H; result = -0.969 natural log
Substitution = T48A; result = -1.05 natural log
Substitution = M51V; result = -1.04 natural log
Substitution = A46W; result = -1.22 natural log
Substitution = R53L; result = -1.47 natural log

Series 2
Target: CCNF, cyclin fold, Cln2 fusion (human)
Technique: yeast growth competition, sequencing
Sample: yeast
Setting: strong parent motif
Baseline: not given
Reading: higher = stronger binding
Quantity: normalised enrichment score
Starting sequence: PKN2 docking peptide (human); VSAVRKLDFSDTM
Substitution = F9L; result = 5.8
Substitution = A3G; result = 5.94
Substitution = V4G; result = 5.8
Substitution = V4E; result = 3.26
Substitution = V4S; result = 6.92
Substitution = V4K; result = 7.58
Substitution = D11W; result = 7.82
Substitution = V4P; result = 5.27

Series 3
Target: RING finger protein unkempt homolog, zinc fingers 1-6, GST-SBP tag (UNK, Homo sapiens, UniProt Q9C0B0, residues 30-357)
Technique: RNA Bind-n-Seq
Form: RNA
Sample: in vitro
Concentration: not given
Setting: RNA with constant flanks, human-mouse chimeric sites, ends assumed
Baseline: input RNA pool
Reading: higher = stronger binding
Quantity: bound/input enrichment
Construct (chain): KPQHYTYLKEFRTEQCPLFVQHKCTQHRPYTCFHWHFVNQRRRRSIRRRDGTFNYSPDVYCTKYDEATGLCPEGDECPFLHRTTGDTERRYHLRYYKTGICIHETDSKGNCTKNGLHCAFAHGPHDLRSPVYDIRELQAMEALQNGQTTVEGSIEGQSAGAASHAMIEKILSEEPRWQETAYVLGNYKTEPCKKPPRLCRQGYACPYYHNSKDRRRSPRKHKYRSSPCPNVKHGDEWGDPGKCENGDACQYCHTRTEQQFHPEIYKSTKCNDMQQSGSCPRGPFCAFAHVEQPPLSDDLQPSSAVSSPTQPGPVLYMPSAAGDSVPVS
Oligonucleotide = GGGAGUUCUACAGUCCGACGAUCUGACAAGGGCACUGCAGAGCCAUGCCUUUCCUUGACAUACAGAAAAAGCUGGGCAUCAGCCUGGACCGGCACUUUAUGUUCCUAAGCGCAGAACAGCCCUACAAGAUCGCCGCUCGGUGCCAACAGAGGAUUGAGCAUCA; result = 0.0854 ratio
Oligonucleotide = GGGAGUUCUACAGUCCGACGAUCUCAUUUUGCUCGGGUUAUUCUUUCCUUUAGGAAAAGCCUAAAGAUUAGUAAGAAAAGAAAACAGAAGCCAUGUUUCGAAGACCUGUGUUACAGGUAUUUCGUCAGUUUGUAAGACAUGAGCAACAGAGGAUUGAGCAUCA; result = 0.58 ratio
Oligonucleotide = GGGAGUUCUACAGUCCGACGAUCUCUUUAAAAAAAAAAUUACCUUUUCUGACAGUGCUUUCCCUCCCAUAGGUCCAGGUUCAAGCUCAAAGAGCAAAGGCUUUGCACGGAGCUCAAACAUCUGAUGAAGAUUUUUGAGACAGACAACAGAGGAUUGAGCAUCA; result = 0.483 ratio
Oligonucleotide = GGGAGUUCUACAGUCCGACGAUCCGCUGGCCCAAGCUGAUGGACUCUGAUCUUGAUCUCUUCUCAGGCACGUGUGCCUUCUCUUAGUCCCUGUUUUCGGGAUGUUAUGAAUCUCAGUACUGUGGUUUGAAAGCAGUUAUGUUGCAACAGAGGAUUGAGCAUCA; result = 0.21 ratio
Oligonucleotide = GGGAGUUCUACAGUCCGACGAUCCAGCCUCAGAGCCCAGACUUCCUGGACAUUACCAACCCUAAAGCGGUAUUAGAAAACGCAUUGAGAAACUUCGCCUGUCUGACGACUGGAGAUGUGAUUGCUAUCAACUACAAUGAGAAGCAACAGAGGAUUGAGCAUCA; result = 0.311 ratio
Oligonucleotide = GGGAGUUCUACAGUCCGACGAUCAUGGAACAUUUCGAUGCGUCACUCAGUACCUAUUUCAAGGCCUUCCUGGGCCCCCGAGAUACUAGAGUCAAAGGAUGGUUCCUCCUGGACAAUUACAUACCCACAUUUGUCUGUUCUGUUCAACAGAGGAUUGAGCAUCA; result = 0.0825 ratio
Oligonucleotide = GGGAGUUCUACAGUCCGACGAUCUGUAACUUAUCUGUAAAAGGUUCCCCCCCCCUACUGUAAAAAAAUAUGCAUGUAUAGUAAUUAGGACUUCAUUCCUCCAUGUUUUCUUCCCUUAUCUUACUGUCAUUGUCCUAAAACCUUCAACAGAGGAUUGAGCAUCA; result = 3.41 ratio
Oligonucleotide = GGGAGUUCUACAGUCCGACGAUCAGAAUCUUGGGACUGUUUUACUUAAUUGGUCAUUGAUAGCUUAACAAACAUGGAGAUAAGAUUAGAAGUUUUGACAUCAACAGGUAUUAAGCAGAAAAAACCCUGGCCACGUGUCUCCUGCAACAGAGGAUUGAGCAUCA; result = 0.54 ratio

Single results of other studies
Starting sequence: PafA, mature enzyme, eGFP fusion (Elizabethkingia meningoseptica, UniProt Q9KJX5); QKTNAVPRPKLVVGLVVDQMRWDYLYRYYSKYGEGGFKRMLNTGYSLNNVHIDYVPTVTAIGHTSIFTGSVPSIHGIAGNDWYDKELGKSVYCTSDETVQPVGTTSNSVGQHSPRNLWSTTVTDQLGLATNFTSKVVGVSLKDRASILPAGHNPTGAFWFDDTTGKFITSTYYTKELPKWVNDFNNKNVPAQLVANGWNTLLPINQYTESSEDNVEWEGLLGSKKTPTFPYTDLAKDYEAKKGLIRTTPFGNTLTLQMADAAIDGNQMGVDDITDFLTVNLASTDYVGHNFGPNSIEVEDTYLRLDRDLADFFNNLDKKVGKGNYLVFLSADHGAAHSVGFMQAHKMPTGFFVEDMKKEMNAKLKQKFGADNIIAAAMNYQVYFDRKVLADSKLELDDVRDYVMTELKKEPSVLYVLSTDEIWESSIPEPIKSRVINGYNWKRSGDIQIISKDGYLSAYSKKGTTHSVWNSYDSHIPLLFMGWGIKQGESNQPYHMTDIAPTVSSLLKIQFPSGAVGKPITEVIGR
Substitution = L303V; target = vanadate, free oxyanion; test = microfluidic competitive inhibition; system = in vitro, cell-free expressed; setting = not given, derived from inhibition constants, unchanged parent 676 nM; scale = lower = stronger binding; quantity = oxyanion analog dissociation constant; result = 638 nM
